Experimental data of several laboratories.
Lines come from different studies, so protocols differ. ± marks the error that the study gave.

Compound | cell line | assay | test system | setting | how to read | measurement | value
CCCCCCCCCCCCOS(=O)(=O)[O-].[Na+] | HEK293-A | whole-cell patch clamp | – | – | – | membrane partition constant | 23000 M⁻¹
CN1CCN([C@@H](c2ccccc2)c2ccc(Cl)cc2)CC1 | Huh-7.5.1 | cell growth or viability, ATP luminescence | – | – | – | CC50 | 33 µM
C=C(C[C@H](N)C(=O)O)C(=O)NCc1ccccc1 | MCF-10A | necrosis | – | 24 h | – | EC50 | > 316 µM
O=c1c(O)c(-c2cccc(-c3ccccc3)c2)oc2cc(O)cc(O)c12 | human infant foreskin fibroblasts | trypan blue exclusion | – | 6 µM, 72 h, 10% FBS | – | viability | 53.1 ± 9.54%
C#C[C@]1(CO)O[C@@H](n2cnc3c(N)nc(F)nc32)C[C@@H]1O | MDCK-II monolayer | – | – | 25 µM, together with: EDTA | – | Papp apical to basolateral | 1.82 ± 0.73 ×10⁻⁶ cm/s
C=C(C[C@@H]1CCSc2ccccc21)c1ccccc1C | RAW264.7 | cytotoxicity, CCK-8 | – | 24 h | – | IC50 | 80.6 µM
C=C(C[C@H](N)C(=O)O)C(=O)Nc1ccc(F)cc1 | MCF-10A | necrosis | – | 24 h | – | EC50 | > 316 µM
Cc1ccc(C)c(-c2csc(NS(=O)(=O)c3ccc(C(=O)N4CCCCC4)cc3)n2)c1 | THP-1 | cell growth or viability, MTT | – | 5 µM, 18 h | – | viability | < 80%
CC/C(=C\c1ccc(OCC(=O)N[C@@H](Cc2ccccc2)C(=O)NCC(=O)OC)cc1)[N+](=O)[O-] | THP-1 | MTT | RPMI-1640 with 10% FBS | 72 h, pH 7.4 | – | CC50 | 5.15 µM
CCCCCCCCCCCC[N+](C)(C)C | horse erythrocytes | haemolysis | – | – | – | CC50 | 714 µM
COC1C(O)[C@@H](COP(=O)(O)OP(=O)([S-])OP(=O)(O)OP(=O)(O)OC[C@H]2O[C@@H](n3cnc4c(=O)[nH]c(N)nc43)C(O)C2O)O[C@H]1n1c[n+](C)c2c(O)nc(N)nc21 (mixture of isomers) | human immature dendritic cells | translation, measured: luciferase | – | – | – | time of maximal expression | 10.5 ± 0.05 h
C=C(C[C@@H]1CCOc2ccc(Cl)cc21)c1ccccc1 | RAW264.7 | cytotoxicity, CCK-8 | – | 24 h | – | IC50 | 166 µM
O=C(O[C@@H]1Cc2c(O)cc(O)cc2O[C@@H]1c1cc(O)c(O)c(O)c1)c1cc(O)c(O)c(O)c1 | Caco-2 | – | – | concentration not given, 3 h | baseline: fed | cellular accumulation | 1.38 ± 0.092%
O=C(c1cc(Cc2n[nH]c(=O)c3ccccc23)ccc1F)N1CCN(C(=O)C2CC2)CC1 | MDA-MB-231 | necrosis | – | 24 h | – | EC50 | 61.7 µM
CN1CCN2CCN(CC1)CCN(Cc1ccccc1)CC2 | THP-1 | cytotoxicity | – | – | – | IC90 | > 20 µM
CCCCCCCCCCCCCC(=O)NCC(=O)O | Caco-2 | WST-1 | – | 50 and 500 µM, 24 h | – | cytotoxicity | not toxic
C[S+](C)[O-] | HEK293T | – | – | concentration not given | – | viability | 51%

Compound | cell line | assay | test system | setting | how to read | measurement | value
Cc1ccc(-c2cc(C(F)(F)F)nn2-c2ccc(S(N)(=O)=O)cc2)cc1 | RAW264.7 | MTT | – | 20 µM, 24 h, 10% FBS, together with: LPS | – | viability | 93 ± 1.44%
O=c1c(O)c(-c2ccc(-c3ccccc3)cc2)oc2cc(O)cc(O)c12 | human infant foreskin fibroblasts | trypan blue exclusion | – | 6 µM, 72 h, 10% FBS | – | viability | 82.1 ± 5.48%
C=C(C[C@H](N)C(=O)O)C(=O)NC1CC1 | MCF-10A | necrosis | – | 24 h | – | EC50 | > 316 µM
Cc1cn(-c2cc(NC(=O)c3ccc(C)c(Nc4nccc(-c5cccnc5)n4)c3)cc(C(F)(F)F)c2)cn1 | hiPSC-derived cardiomyocytes | – | – | 72 h | – | concentration of contraction prolongation | ≥ 3.7 µM
C=C(C[C@@H]1CCOc2ccccc21)c1c(C)cc(C)cc1C | RAW264.7 | cytotoxicity, CCK-8 | – | 24 h | – | IC50 | 74.1 µM
C=C(C[C@H](N)C(=O)O)C(=O)NCc1ccc(F)cc1 | MCF-10A | necrosis | – | 24 h | – | EC50 | > 316 µM
O=c1c(O)c(-c2ccc(O)cc2)oc2cc(O)cc(O)c12 | human infant foreskin fibroblasts | trypan blue exclusion | – | 36 µM, 72 h, 10% FBS | – | viability | 106 ± 5.66%
C=C(C[C@H](N)C(=O)O)C(=O)N1CCCCC1 | MCF-10A | necrosis | – | 24 h | – | EC50 | > 316 µM
O=c1c(O)c(-c2ccc(I)cc2)oc2cc(O)cc(O)c12 | human infant foreskin fibroblasts | trypan blue exclusion | – | 6 µM, 72 h, 10% FBS | – | viability | 70.2 ± 2.7%
C[C@@H]1[C@H](O)[C@@H](C)/C=C/C=C/C=C/C=C/C=C/C=C/C=C/[C@H](O[C@@H]2O[C@H](C)[C@@H](O)[C@H](N)[C@@H]2O)C[C@@H]2O[C@](O)(C[C@@H](O)C[C@@H](O)[C@H](O)CC[C@@H](O)C[C@@H](O)CC(=O)O[C@H]1C)C[C@H](O)[C@H]2C(=O)O | THP-1 | cell growth or viability, MTT | – | 72 h, pH 7.4 | – | CC50 | 10.7 µM
C=C(C[C@H](N)C(=O)O)C(=O)NCc1ccc([N+](=O)[O-])cc1 | MDA-MB-231 | necrosis | – | 24 h | – | EC50 | 151 µM
CCCC/C=C\CCCCCCCC(=O)OC | Caco-2 | WST-1 | – | 50 and 500 µM, 24 h | – | cytotoxicity | not toxic
C=C(C[C@@H]1CCOc2ccc(OC)cc21)c1ccccc1 | RAW264.7 | cytotoxicity, CCK-8 | – | 24 h | – | IC50 | 178 µM
CCCCCCCCCCCCCCCCCCOC(=O)c1ccccc1-c1c2ccc(=[N+](CC)CC)cc-2oc2cc(N(CC)CC)ccc12.[Cl-] | HEK293-A | whole-cell patch clamp | – | – | – | membrane partition constant | 39000 M⁻¹
O=c1c(O)c(-c2cccc(I)c2)oc2cc(O)cc(O)c12 | human infant foreskin fibroblasts | trypan blue exclusion | – | 13 µM, 72 h, 10% FBS | – | viability | 106 ± 5.79%
C=C(C[C@H](N)C(=O)O)C(N)=O | MCF-10A | necrosis | – | 24 h | – | EC50 | > 316 µM

For quick reference, copied from above:
Compound | cell line | assay | test system | setting | how to read | measurement | value
O=c1c(O)c(-c2cccc(I)c2)oc2cc(O)cc(O)c12 | human infant foreskin fibroblasts | trypan blue exclusion | – | 13 µM, 72 h, 10% FBS | – | viability | 106 ± 5.79%
C=C(C[C@H](N)C(=O)O)C(N)=O | MCF-10A | necrosis | – | 24 h | – | EC50 | > 316 µM
